Assay results pooled from the literature.
Compare with care: the assays were run in different laboratories.
Target: Amine oxidase [flavin-containing] A (MAOA, Homo sapiens, UniProt P21397)

| SMILES | assay | conditions | scale | quantity | value |
| --- | --- | --- | --- | --- | --- |
| COc1ccc(F)cc1S(=O)(=O)Nc1cnc2c(c1)C(=O)NCCO2 | enzyme activity, inhibitor | 10 µM |  | inhibition | 1% |
| CCOC(=O)[C@](CC)(CCCSCCOCCOCCNC(=O)c1ccc(-c2c3ccc(=N)c(S(=O)(=O)O)c-3oc3c(S(=O)(=O)O)c(N)ccc23)c(C(=O)O)c1)NC(=O)c1ccc(C2CC2)c(Cc2ccc(F)cc2)n1 | enzyme activity, inhibitor | 10 µM |  | inhibition | 1% |
| Cc1cc(Nc2nc(C[C@@]3(C(=O)O)CCN(Cc4cccc(Cl)c4F)[C@H](C)C3)cc(C)c2F)[nH]n1 | enzyme activity, inhibitor | 10 µM |  | inhibition | -2.59% |
| C/C(=N\OCCCN1CCCCC1)c1ccc(C(F)(F)F)cc1 | antagonist, FI | 10 µM |  | inhibition | 39.8% |
| C[C@H](NCc1ccc(-c2ccc(C(F)(F)F)cc2)cc1)C(N)=O | enzyme activity, SafetyScreen panel | 1 µM, added: 50.0 µM kynuramine |  | inhibition | 5% |
| Cc1ccc2c(n1)c(-c1cccc(S(C)(=O)=O)c1)c(C)n2C/C(F)=C/CN | ligand displacement | 10 µM |  | inhibition | 1% |
| CCN(CC)CCOc1ccc(-c2nnn(Cc3ccc(OC)cc3)c2N)cc1 | enzyme activity | 10 µM |  | inhibition | -5.22% |
| C[C@H](NC(=O)[C@@H](N)CCC(=O)O)C(=O)N[C@@H](Cc1ccc(O)cc1)C(=O)N[C@@H](CCC(N)=O)C(=O)O | inhibitor, fluorometric |  | relative to: IC50 MAO-B over IC50 MAOA | selectivity ratio | 2 |
| CS(C)(=O)=Nc1ccc(-c2ccc(-c3nc4cc(O[C@@H]5CO[C@H]6[C@@H]5OC[C@H]6O)[nH]c4cc3F)cc2)cc1 | enzyme activity, inhibitor | 10 µM |  | inhibition | -2% |
